Assay results from different studies.
Every numbered part comes from another study and shows a few of its results, in no order. Changes are numbered by the printed parent chain.

Sample 1
Target: PABPC1L2, full length, GST fusion (mouse, UniProt A0ABA7IW68)
Method: RNAcompete
Form: RNA
Matrix: in vitro
Concentration: 20 nM
Setting: 7-mer, probes averaged, single round
Relative to: mean of 7-mers
Direction: higher = stronger binding
Residues (chain): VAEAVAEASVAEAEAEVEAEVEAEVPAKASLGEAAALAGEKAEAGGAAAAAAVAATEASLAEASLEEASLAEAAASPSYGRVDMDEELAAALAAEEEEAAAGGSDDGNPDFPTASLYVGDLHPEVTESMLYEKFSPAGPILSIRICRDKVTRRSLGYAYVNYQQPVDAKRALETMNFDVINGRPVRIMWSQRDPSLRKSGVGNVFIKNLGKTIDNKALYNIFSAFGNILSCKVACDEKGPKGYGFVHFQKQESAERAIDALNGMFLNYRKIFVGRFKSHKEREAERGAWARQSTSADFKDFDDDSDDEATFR
Strand | 7-mer Z-score
GCAUUGA | -0.0156
GCUUGAG | -0.0101
CGGUUAG | -0.0174
UCGGUCA | -0.331
GGACGAA | 0.376
AAGUUAC | 0.155
CCUCAUG | -0.358
CGACUAG | -0.175
UGUCGGG | -0.104
ACAAUAU | 0.312
UAUCGAU | -0.139
GAAAGUA | 0.809
CUGCCUA | -0.277
UCUAAUG | -0.249
GCUAUAG | -0.262
CACUCAC | -0.0627
GCCUACC | -0.273
CCAUCAC | -0.238
UUCUAAA | 0.401
AAUUUAU | 0.503
CCGGGAC | -0.079
UUGUUGG | -0.409
UCGGGAU | -0.0283

Sample 2
Target: ABI1, truncated, D143A, DHFR fusion (Arabidopsis thaliana)
Method: DHFR PCA, deep sequencing
Matrix: yeast
Setting: methotrexate growth selection, single substitutions
Together with: (+)-ABA 4.8 µM
Relative to: wild-type fitted maximum
Direction: higher = stronger binding
Starting sequence: PYL1, truncated, DHFR fusion (Arabidopsis thaliana); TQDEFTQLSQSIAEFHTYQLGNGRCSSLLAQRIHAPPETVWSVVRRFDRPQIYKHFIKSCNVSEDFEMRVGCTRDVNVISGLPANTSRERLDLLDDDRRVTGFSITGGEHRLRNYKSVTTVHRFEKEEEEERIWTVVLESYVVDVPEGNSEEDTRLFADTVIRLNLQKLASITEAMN
Change | relative binding score [%]
A35T | 24.4
V118F | -0.552
I12L | 28.5
E128K | 77.8
Q51Y | 49.3
A30D | 19.4
E14P | -12.2
K58R | 69.3
E125G | 76.2
T1G | 71.4
V76R | 3.56
A84E | 14.9
I105K | 3.92
P50G | -1.89
T120P | 0.692
T73N | 38.2

Sample 3
Target: RNA binding protein fox-1 homolog 2, RRM domain, GST-SBP tag (RBFOX2, Homo sapiens, UniProt O43251-10, residues 100-194)
Method: RNA Bind-n-Seq
Form: RNA
Matrix: in vitro
Concentration: 365 nM
Setting: natural RNA segment, single round, ends assumed
Relative to: no-protein control
Direction: higher = stronger binding
Target sequence (chain): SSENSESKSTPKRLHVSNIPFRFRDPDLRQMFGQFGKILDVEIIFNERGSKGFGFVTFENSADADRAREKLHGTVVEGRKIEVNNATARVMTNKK
Strand | RBNS enrichment (R)
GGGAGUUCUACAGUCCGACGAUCCGCCCUGCUGCCACCCAGUGACUGGCAGGGCCGAGCCAGCAUUCCACCCCACCUUUUUCCUUCUCCCCAAUUACUCCCCUGAAUCAAUGUACAAAUCAGCACCCACAUCCUGGAAUUCUCGGGUGCCAA | 1.92
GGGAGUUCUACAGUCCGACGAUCUGGCCCGGUGAUGAAGGCUUUCUACUCCUUAACAGGUACAGUUGGAUCCAUCGCUGAUGGUGUUUCUUUAGCCCCAUCCCAAUUGGCCUAAAACAUUUGUCACCAGAACAUGGAAUUCUCGGGUGCCAA | 0.39
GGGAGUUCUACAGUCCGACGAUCUGCUCAGCAUCUGGAAAUUUGGGUGUGCGAUUUUCCCUGAACACAUUGCAUACCAGUGUAAAAAGACUCUGCCUCCCCCCUUUUUGGCUUUUUUACUGGGCUUGGCUGGCUGGAAUUCUCGGGUGCCAA | 2.28
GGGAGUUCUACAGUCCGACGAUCGAAACUCAAUGUUUUUUUAAGUUUUGUUUUCCCUUUAAAGCCUUUUUUUAGGCCACAUUGACAGUGGUGGGCGGGGAGAAGAUAGGGAACACUCAUCCCUGGUCGUCUAUUGGAAUUCUCGGGUGCCAA | 0.46
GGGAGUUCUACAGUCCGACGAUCUUGAGGGCCUUGACAGAUCGGGCCAGCGCUGACCUCUGUGCUCUGCUUCCUUUCUUUAUCCCUGUUUGUAAACACGGCGCCUCCCUUAAUGUGGCACCAUGCAGAUGUGAUGGAAUUCUCGGGUGCCAA | 0.792
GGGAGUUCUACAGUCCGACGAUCGUUGUAUGGGGCUUUCCCAGAAUCCCCUUCCCUGAGCAUCCUGGUCUCCCCCACACACACCUGUCACCUCUCUACAGAGACCCUGAGGGUGCGGUGAGAUGGAGGCCAUGUGGAAUUCUCGGGUGCCAA | 0.895
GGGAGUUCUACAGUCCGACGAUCUGGAAGAAGGCAGUGGUGGUGGACAUCACAGAGCACUGCCAUUGAUAUCAGACUCCACAUAUGGCCUUAUUAAUUGCUGUAGGAAGCAUCUUGGGACUGGAAGAUAUGAUUGGAAUUCUCGGGUGCCAA | 1.06
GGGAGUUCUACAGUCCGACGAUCUGAAGCUACAGCAUAUCUAACCAGAGAAUUUCUGAUUCCUUAUACUGUGAUUAUAUUAUAUUGAGGCAUUUGUAGUGCAGCUGAAGACUGAAUUUAUGCCUUUUGUAAACUGGAAUUCUCGGGUGCCAA | 0.36
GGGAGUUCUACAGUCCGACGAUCCCAGGACGUGGCCUCUUCCGAUCCUUUUCUCUCAGACACUGGAGGUCUCUUCUGCCAUUGUGCUGGUCCCAUCCCAAGAAUUGUAGGACAGAGACCACACUGGGUCGGCGUGGAAUUCUCGGGUGCCAA | 0.665
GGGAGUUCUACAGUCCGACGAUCAGAUCGCACUGGAAGAUUUUAUAAAAGAAUUUUUGUGGGUCGGGGGGACAGUAAACUUCCUGGGCCACGUGGGUCCUUCAGGAGUUUUUCAGGCAAGUUUUUCCUCUGUUUGGAAUUCUCGGGUGCCAA | 0.549
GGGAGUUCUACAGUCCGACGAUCAUUUUUUUGAAUGACUACAGUAUGGACAAUUUCAAAAACCAAAACCCACUUUGGAUUGGUGGAAGUAAAAACUGGUAACUCACUCAAGUGAAUGAAUGGUCUUGCAUUUUUGGAAUUCUCGGGUGCCAA | 0.529
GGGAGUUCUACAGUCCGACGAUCUACAUAUCUACUGACUGAUGACAAGGGAAUUUCAUUAGGAAGAAGGUAAAGAAACAUCGUUGAGUAGCCUACCUUGAUUUCUGUCAAGUUCAUAACCAGCUUCAUAUUUUUGGAAUUCUCGGGUGCCAA | 0.508

Sample 4
Target: CCNE1, cyclin fold, Cln2 fusion (human)
Method: yeast growth competition, sequencing
Matrix: yeast
Setting: strong parent motif
Relative to: not given
Direction: higher = stronger binding
Starting sequence: PKMYT1 docking peptide (human); SFEPRNLLSLFED; partner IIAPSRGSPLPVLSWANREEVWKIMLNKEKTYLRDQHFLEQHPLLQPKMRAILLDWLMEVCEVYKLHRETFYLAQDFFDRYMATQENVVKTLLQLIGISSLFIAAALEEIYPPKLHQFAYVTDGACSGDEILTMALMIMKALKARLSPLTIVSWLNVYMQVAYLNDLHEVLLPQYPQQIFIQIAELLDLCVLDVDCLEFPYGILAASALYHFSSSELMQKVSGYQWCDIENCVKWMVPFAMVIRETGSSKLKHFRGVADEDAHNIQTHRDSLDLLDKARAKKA
Change | normalised enrichment score
SFEYRNLLSLFED [P4Y] | 0.65
SFEPRNYLSLFED [L7Y] | 0.399
SFEPRNLLSLFYD [E12Y] | 1.88
SNEPRNLLSLFED [F2N] | 0.27
SFEPRSLLSLFED [N6S] | 1.32
SFEPRNLLSFFED [L10F] | 1.91
SFEPRNLLSLFHD [E12H] | 1.65
SFEPRNLLSAFED [L10A] | 2.52
STEPRNLLSLFED [F2T] | 1.3
SFEPRNNLSLFED [L7N] | -0.00305
SFEPNNLLSLFED [R5N] | 0.69
SFEPRNLLDLFED [S9D] | 1.55
SFEPRNLLSLFEI [D13I] | 1.94
SREPRNLLSLFED [F2R] | 0.707
EFEPRNLLSLFED [S1E] | 1.29
SFETRNLLSLFED [P4T] | 0.824
SFEPRNLLSLHED [F11H] | 0.747
FFEPRNLLSLFED [S1F] | 2.05
SFEPRNLLSLCED [F11C] | -0.227
SFEPRNLLSLGED [F11G] | 0.0419
RFEPRNLLSLFED [S1R] | 1.43
SQEPRNLLSLFED [F2Q] | 0.0248
SFEPRNQLSLFED [L7Q] | 0.0731
SFEPRNLLSLFEE [D13E] | 1.77
SFEPRNRLSLFED [L7R] | 0.114

Sample 5
Target: Histone acetyltransferase KAT6A, winged helix 2, GST fusion (KAT6A, Homo sapiens, UniProt Q92794, residues 85-181)
Method: protein binding microarray
Form: double-stranded DNA, one strand shown
Matrix: in vitro
Concentration: not given
Setting: 8-mer, flanks averaged, mean of 2 arrays, mostly near background
Relative to: not given
Direction: higher = stronger binding
Target sequence (chain): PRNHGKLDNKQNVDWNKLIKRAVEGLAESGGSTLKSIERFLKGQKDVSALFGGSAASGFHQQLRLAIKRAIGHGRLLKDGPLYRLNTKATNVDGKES
Strand | E-score
CCGTGTGC | 0.0431
ATTAGCCG | -0.00137
GCCCTTAC | -0.0106
AAGGTGTA | -0.0458
GGCCCTCA | -0.0739
TCGCAAAA | 0.104
ATAGATTC | -0.0144
GTACTGTA | -0.18
CCGTACCC | 0.0309
AAGGTTGA | 0.0181
ACACATGG | -0.0295
ATAGCCTC | -0.14
GGAACCAA | 0.124
ATGTTTGA | -0.103
CGTATTGC | -0.099
ACTCGGTC | -0.0247
TGTCGGAA | 0.137
GCCAGCAC | 0.0769
CACACGAA | 0.137
GTGCGTTA | -0.00531

Sample 6
Target: Sal-like protein 4, full length isoform A (SALL4, Homo sapiens, UniProt Q9UJQ4, residues 1-1053)
Sequence of UniProt Q9UJQ4 (whole entry, looked up): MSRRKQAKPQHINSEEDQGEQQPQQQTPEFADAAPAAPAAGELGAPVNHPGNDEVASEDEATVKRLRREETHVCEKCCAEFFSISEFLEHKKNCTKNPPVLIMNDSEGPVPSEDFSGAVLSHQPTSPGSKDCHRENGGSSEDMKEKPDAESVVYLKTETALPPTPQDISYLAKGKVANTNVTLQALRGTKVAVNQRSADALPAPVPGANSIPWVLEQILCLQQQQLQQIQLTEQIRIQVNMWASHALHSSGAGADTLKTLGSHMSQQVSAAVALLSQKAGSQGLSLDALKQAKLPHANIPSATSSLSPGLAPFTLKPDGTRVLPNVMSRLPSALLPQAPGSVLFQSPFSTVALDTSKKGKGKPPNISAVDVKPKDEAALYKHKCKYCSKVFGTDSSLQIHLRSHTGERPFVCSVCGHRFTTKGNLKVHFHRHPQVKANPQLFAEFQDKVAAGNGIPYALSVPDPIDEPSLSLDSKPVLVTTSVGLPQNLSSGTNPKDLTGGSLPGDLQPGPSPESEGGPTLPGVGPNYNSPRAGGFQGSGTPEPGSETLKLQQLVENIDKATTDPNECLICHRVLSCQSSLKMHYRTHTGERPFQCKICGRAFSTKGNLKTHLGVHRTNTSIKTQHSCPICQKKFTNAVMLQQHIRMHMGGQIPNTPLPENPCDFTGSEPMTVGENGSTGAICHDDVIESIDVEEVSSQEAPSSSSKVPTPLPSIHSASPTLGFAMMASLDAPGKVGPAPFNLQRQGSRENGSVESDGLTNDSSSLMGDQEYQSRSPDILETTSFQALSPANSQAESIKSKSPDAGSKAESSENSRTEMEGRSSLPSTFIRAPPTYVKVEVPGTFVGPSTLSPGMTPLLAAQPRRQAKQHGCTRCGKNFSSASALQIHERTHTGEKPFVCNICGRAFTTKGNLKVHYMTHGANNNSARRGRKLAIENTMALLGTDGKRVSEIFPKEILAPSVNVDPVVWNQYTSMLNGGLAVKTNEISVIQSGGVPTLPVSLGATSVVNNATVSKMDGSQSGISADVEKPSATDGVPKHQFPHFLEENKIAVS
Method: universal PBM
Form: double-stranded DNA, one strand shown
Matrix: in vitro
Concentration: 600 nM
Setting: 8-mer, flanks averaged, mean of replicates
Direction: higher = stronger binding
Strand | E-score
AATTAGTA | 0.38
CAAAATGG | 0.17
AACTATTA | 0.348
AAGATGGT | 0.0591
TAATGGTA | 0.176
CGCATTAA | 0.25
CACGTTCC | -0.177
TACGATAA | 0.304
GCCGGCCA | -0.283
CCCTGAAG | -0.285
TGAGGTAA | 0.0112
CTAAGGCA | -0.0651
CGGTTGCA | -0.225
AGGTAGGG | -0.0571
CGAGACTA | -0.0066
AAACCACT | 0.0411
GCTATTTA | 0.282
CACATGAC | -0.00409
ACGTGGTA | -0.0318
AACATCTC | 0.107
ATTCTTAG | 0.105
ACTCTACC | -0.0557
CACGAGGA | -0.129
AAGGCCAT | -0.0446
CTAGGTGC | -0.248

Excerpt of the above (sample 4):
Change | normalised enrichment score
SFEPRNLLDLFED [S9D] | 1.55
SFEPRNLLSLGED [F11G] | 0.0419
SFEYRNLLSLFED [P4Y] | 0.65
SFEPNNLLSLFED [R5N] | 0.69
SFEPRNLLSLCED [F11C] | -0.227
SFEPRNLLSLFEI [D13I] | 1.94
SFEPRNYLSLFED [L7Y] | 0.399
SFEPRNQLSLFED [L7Q] | 0.0731
SFEPRNLLSLFEE [D13E] | 1.77
EFEPRNLLSLFED [S1E] | 1.29
